# Assay results gathered from unrelated publications.
# Each numbered part is a random draw from the data of one study; scales do not carry over between parts.

# Set 1
# Target: Sal-like protein 4, full length isoform B (SALL4, Homo sapiens, UniProt Q9UJQ4-2, residues 1-616)
# Technique: universal PBM
# Molecule type: double-stranded DNA, one strand shown
# Sample: in vitro
# Concentration: not given
# Notes: 8-mer, flanks averaged, mean of replicates
# Direction: higher = stronger binding
Oligonucleotide,E-score
ATTGCAAA,0.276
AGACTCCG,-0.137
AGTAAAAT,0.266

# Set 2
# Target: Interferon regulatory factor 3, full length, phosphomimetic (IRF3, Homo sapiens, UniProt Q14653, residues 1-427, S386D/S396D/S398D/S402D/T404D/S405D)
# Chain of UniProt Q14653 (whole entry, unmodified, looked up): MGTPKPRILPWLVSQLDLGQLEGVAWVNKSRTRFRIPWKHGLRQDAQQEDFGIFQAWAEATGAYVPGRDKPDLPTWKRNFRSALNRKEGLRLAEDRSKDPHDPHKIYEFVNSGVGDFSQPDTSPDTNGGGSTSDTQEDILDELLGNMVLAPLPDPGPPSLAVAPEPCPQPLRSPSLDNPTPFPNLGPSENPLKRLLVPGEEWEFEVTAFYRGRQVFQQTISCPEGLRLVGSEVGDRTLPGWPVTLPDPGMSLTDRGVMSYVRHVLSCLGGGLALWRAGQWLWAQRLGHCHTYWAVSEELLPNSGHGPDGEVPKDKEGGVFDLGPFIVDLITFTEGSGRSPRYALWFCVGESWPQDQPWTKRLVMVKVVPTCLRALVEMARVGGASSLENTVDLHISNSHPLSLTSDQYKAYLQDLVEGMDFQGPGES
# Technique: protein-binding microarray
# Molecule type: double-stranded DNA, one strand shown
# Sample: in vitro
# Concentration: 2540 nM top
# Notes: 60-bp whole probe
# Added: salmon DNA 0.4 mg/ml
# Relative to: random background probes
# Direction: higher = stronger binding
Oligonucleotide,fitted relative affinity [z-score]
GCCTAGCACGGGGAGCAGGGTGGCCCTGTGTGCTAGGTCTTGATTCGCTTGACGCTGCTG,-1.41
GCCTAGCACGACGGTTTCCTTCTCCTGCCGTGCTAGGTCTTGATTCGCTTGACGCTGCTG,9.08
GCCTAGCACGAGGGACTGCTTTTCCTGACGTGCTAGGTCTTGATTCGCTTGACGCTGCTG,-0.394
GCCTAGCACGACGAACTGGCGACTGGAGACGTGCTAGTCTTGATTCGCTTGACGCTGCTG,-0.461

# Set 3
# Target: Prothrombin, mature alpha-thrombin (F2, Homo sapiens, UniProt P00734)
# Technique: aptamer microarray, sandwich
# Molecule type: DNA with 2'F-ANA
# Sample: in vitro
# Concentration: 200 nM
# Notes: whole 15-mer aptamer, many near background
# Added: Cy3 exosite-II aptamer, 400 nM
# Direction: higher = stronger binding
Oligonucleotide,mean fluorescence intensity
GGTTGGTGTGGTTGG (2'F-ANA at 1 6 7 8 10 12 15),72.4 a.u.
GGTTGGTGTGGTTGG (2'F-ANA at 2 3 4 6 11 14 15),226 a.u.
GGTTGGTGTGGTTGG (2'F-ANA at 2 3 7 9 10 13 14),278 a.u.
GGTTGGTGTGGTTGG (2'F-ANA at 1 2 3 6 9 11 12 13 15),246 a.u.

# Other studies, line by line
Molecule,target,assay,system,setting,scale,measurement,value
"PhoQ, residues 284 288 289 292 302 303 TNSAEL","PhoP, residues 12 14 15 18 19 LHTVM (Escherichia coli, UniProt P23836)","Sort-seq, refers to: YFP reporter",E. coli,"PhoQ-PhoP variant library, added: 10 µM Mg2+","relative to: high Mg2+ state, higher = stronger signaling",fold induction,1.48

# Some of these lines once more (set 3):
Oligonucleotide,mean fluorescence intensity
GGTTGGTGTGGTTGG (2'F-ANA at 1 6 7 8 10 12 15),72.4 a.u.
